# Experimental data from different studies.
# Parts stem from different laboratories: compare values within a part only. “And” joins repeats or separate records; there may be more than shown.
# UniProt Q15349, sequence (whole entry, looked up): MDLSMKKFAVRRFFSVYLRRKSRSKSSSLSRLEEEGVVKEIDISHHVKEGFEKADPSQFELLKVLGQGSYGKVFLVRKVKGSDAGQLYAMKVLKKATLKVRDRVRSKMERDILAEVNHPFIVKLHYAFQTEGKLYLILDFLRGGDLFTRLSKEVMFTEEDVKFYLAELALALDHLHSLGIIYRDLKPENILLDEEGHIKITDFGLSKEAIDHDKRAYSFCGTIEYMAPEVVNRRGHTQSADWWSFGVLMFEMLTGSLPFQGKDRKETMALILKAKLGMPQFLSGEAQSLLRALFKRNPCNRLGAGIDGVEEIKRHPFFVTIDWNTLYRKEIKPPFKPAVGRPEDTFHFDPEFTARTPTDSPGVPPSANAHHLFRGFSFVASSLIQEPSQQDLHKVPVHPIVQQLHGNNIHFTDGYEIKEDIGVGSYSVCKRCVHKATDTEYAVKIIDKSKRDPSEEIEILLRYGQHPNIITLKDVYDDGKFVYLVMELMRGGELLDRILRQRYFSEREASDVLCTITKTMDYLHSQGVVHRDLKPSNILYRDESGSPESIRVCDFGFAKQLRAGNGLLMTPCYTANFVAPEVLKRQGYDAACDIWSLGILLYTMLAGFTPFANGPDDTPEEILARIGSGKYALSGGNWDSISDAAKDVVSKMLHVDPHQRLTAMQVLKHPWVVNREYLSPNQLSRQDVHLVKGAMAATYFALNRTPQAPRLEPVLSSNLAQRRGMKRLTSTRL
# UniProt Q8TD08, sequence (whole entry, looked up): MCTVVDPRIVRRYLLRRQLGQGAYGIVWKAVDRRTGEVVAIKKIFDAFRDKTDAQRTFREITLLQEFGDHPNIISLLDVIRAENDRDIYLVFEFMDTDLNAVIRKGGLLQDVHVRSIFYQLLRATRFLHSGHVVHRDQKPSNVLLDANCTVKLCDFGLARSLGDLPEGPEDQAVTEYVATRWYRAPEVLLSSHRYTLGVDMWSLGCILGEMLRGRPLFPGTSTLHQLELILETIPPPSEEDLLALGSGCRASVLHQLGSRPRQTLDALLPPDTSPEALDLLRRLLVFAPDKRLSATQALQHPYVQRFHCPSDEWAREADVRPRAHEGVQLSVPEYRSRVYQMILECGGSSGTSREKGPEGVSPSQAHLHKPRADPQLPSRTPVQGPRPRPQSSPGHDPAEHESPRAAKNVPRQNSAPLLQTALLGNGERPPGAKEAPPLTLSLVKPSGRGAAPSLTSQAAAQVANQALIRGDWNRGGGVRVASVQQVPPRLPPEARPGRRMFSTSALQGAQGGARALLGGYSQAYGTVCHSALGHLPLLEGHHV
# UniProt Q07002, sequence (whole entry, looked up): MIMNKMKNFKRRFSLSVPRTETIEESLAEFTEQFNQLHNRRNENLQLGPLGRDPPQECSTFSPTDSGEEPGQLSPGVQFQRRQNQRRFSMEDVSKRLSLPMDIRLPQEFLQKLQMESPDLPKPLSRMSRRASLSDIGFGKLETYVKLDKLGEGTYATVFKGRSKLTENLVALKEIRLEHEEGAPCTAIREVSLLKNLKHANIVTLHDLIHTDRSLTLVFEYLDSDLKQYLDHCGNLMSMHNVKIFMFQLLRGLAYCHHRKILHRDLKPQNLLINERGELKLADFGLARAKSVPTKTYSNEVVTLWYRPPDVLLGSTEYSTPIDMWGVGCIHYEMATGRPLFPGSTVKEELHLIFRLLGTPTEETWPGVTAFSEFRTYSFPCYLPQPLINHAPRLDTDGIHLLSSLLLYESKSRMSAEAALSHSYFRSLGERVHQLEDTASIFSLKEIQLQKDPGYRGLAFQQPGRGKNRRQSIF
# UniProt P00519, sequence (whole entry, unmodified, looked up): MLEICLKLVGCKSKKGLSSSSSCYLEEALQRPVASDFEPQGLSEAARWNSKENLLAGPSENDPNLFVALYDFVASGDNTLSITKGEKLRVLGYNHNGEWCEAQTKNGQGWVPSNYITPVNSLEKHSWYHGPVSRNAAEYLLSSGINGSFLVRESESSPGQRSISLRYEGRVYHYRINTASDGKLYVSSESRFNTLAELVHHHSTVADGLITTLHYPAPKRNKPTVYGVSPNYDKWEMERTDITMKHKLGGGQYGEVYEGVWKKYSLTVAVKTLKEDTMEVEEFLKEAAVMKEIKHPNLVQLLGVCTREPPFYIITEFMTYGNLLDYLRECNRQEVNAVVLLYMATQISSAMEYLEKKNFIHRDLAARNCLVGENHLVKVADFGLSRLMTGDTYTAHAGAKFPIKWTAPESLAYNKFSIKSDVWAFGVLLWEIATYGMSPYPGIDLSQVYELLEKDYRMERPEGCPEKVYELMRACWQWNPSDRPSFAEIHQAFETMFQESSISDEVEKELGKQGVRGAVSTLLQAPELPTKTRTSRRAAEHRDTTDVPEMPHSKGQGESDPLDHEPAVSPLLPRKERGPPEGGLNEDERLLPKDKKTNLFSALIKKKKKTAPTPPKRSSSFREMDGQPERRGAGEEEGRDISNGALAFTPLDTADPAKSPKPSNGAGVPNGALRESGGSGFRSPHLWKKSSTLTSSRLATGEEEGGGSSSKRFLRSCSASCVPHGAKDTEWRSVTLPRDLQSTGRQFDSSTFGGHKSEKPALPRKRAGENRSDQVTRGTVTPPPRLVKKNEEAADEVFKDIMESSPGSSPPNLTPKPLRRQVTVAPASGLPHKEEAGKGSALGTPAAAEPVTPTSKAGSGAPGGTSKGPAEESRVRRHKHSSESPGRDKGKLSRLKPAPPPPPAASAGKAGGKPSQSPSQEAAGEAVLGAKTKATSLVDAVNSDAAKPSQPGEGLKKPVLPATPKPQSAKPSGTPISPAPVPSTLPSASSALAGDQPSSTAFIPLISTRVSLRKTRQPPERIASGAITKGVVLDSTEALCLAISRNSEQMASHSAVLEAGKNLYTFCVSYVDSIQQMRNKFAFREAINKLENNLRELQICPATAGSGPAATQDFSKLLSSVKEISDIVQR
# UniProt Q9P286, sequence (whole entry, looked up): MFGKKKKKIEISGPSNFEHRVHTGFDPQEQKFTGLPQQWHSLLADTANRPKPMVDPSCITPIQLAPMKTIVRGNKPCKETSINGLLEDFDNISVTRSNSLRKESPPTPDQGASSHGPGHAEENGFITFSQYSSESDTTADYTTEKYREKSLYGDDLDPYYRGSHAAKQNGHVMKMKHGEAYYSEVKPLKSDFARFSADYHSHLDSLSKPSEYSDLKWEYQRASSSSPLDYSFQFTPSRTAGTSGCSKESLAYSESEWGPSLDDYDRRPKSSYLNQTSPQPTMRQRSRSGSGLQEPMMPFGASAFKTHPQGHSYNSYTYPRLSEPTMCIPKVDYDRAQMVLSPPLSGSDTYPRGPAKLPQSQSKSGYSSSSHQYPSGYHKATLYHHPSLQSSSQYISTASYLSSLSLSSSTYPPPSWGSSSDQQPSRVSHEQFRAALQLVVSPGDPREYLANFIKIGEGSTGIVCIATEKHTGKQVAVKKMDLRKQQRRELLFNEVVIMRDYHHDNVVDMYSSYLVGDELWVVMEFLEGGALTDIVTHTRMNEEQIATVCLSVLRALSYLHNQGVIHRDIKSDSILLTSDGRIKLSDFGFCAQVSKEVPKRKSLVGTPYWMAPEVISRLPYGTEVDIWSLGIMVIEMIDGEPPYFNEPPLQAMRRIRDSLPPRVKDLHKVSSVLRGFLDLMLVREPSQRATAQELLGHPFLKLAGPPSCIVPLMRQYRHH
# UniProt P48729, sequence (whole entry, looked up): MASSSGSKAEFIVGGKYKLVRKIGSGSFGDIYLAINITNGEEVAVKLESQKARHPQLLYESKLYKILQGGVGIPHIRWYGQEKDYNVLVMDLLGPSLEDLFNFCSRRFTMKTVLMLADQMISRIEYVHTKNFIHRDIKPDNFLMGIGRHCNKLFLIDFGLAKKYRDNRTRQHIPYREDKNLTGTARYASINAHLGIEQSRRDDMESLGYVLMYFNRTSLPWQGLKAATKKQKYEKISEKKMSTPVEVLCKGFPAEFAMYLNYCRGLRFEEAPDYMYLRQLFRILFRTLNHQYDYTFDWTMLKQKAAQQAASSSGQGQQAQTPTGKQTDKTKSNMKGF
# UniProt P51817, sequence (whole entry, looked up): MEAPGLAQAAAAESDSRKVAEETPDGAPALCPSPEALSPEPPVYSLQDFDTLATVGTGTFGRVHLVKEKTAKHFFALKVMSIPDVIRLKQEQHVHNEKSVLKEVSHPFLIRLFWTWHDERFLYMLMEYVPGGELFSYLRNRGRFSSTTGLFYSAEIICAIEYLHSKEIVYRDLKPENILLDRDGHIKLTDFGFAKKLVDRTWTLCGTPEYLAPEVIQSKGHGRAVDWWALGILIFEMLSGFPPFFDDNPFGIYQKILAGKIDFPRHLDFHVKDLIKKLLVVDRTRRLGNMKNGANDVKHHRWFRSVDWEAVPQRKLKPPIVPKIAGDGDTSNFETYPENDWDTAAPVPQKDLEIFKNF

# Block 1
# Compound: Cc1ccc(O)c(C)c1-c1cnc2[nH]c(-c3cnc(N4CCC(CCN5CCN(c6ccc(NC7CCC(=O)NC7=O)cc6F)CC5)CC4)nc3)cc2c1C#N (stereo not shown)
# Target: Membrane-associated tyrosine- and threonine-specific cdc2-inhibitory kinase (PKMYT1, Homo sapiens, UniProt Q99640)
# UniProt Q99640, sequence (whole entry, looked up): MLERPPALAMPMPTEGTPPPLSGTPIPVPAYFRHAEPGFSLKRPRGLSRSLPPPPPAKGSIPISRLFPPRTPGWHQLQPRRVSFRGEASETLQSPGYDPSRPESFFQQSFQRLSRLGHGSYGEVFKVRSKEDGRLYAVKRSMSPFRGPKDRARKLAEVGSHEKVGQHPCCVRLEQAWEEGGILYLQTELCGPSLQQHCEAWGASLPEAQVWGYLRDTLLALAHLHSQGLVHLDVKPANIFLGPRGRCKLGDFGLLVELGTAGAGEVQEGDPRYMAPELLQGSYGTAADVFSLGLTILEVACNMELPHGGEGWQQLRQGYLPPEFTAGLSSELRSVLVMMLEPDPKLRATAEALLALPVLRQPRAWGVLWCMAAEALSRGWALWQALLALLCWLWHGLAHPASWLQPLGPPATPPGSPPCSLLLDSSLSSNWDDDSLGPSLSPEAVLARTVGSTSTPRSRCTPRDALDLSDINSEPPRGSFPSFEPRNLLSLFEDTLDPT
test,conditions,inhibition
,0.000152 µM,-4.59%
,0.1111 µM,98.7%
,0.3333 µM,98.8%
,0.01235 µM,89.7%
"cell-free assay, inhibitor, TR-FRET",37.04 nM,96.2%
"cell-free assay, inhibitor, TR-FRET",460 pM,0.4%
"cell-free assay, inhibitor, TR-FRET",0.3333 µM,100%
"cell-free assay, inhibitor, TR-FRET",1 µM,99.8%
"cell-free assay, inhibitor, TR-FRET",4.12 nM,58.1%
"cell-free assay, inhibitor, TR-FRET",0.1111 µM,97.9%

# Block 2
# Compound: COc1cc(-c2nc3ccc(C(=O)NCCCN(C)C)cc3n2C2CCC2)cc(OC)c1OC
# Effect on: binding
# Method: competition with immobilised ligand
# Tested at: 1 µM
target,remaining binding [%]
"RAF proto-oncogene serine/threonine-protein kinase (RAF1, Homo sapiens, UniProt P04049)",78
"Activin receptor type-1-like (ACVRL1, Homo sapiens, UniProt P37023)",18
"Ribosomal protein S6 kinase alpha-2, N-terminal kinase domain (RPS6KA2, Homo sapiens, UniProt Q15349)",100
"Receptor-interacting serine/threonine-protein kinase 4 (RIPK4, Homo sapiens, UniProt P57078)",36
"cAMP-dependent protein kinase catalytic subunit PRKX (PRKX, Homo sapiens, UniProt P51817)",71
"Serine/threonine-protein kinase 24 (STK24, Homo sapiens, UniProt Q9Y6E0)",80
"Serine/threonine-protein kinase PAK 5 (PAK5, Homo sapiens, UniProt Q9P286)",85
"Cyclin-dependent kinase 18 (CDK18, Homo sapiens, UniProt Q07002)",100
"Calcium/calmodulin-dependent protein kinase type 1D (CAMK1D, Homo sapiens, UniProt Q8IU85)",96
"Casein kinase I isoform alpha (CSNK1A1, Homo sapiens, UniProt P48729)",98
"Mitogen-activated protein kinase 15 (MAPK15, Homo sapiens, UniProt Q8TD08)",100
"Tyrosine-protein kinase ABL1, non-phosphorylated (ABL1, Homo sapiens, UniProt P00519, F317I)",84
"Hepatocyte growth factor receptor (MET, Homo sapiens, UniProt P08581, M1250T)",90
"Mitogen-activated protein kinase kinase kinase kinase 1 (MAP4K1, Homo sapiens, UniProt Q92918)",83

# Block 3
# Organism: Arabidopsis thaliana
# Strain: Col-0
# Tested at: 6.25 µg/mL
# Notes: seed germination, single repetition
Structure (SMILES),hypocotyl length
CCCN1C(=O)C(O)(C(=O)O)Oc2cc(F)ccc21 (stereo not shown),2.15 cm and 2.1 cm and 2.23 cm and 2.14 cm
O=C(O)C1(O)Oc2cc(Br)ccc2N(Cc2ccccc2)C1=O (stereo not shown),2.01 cm and 2.03 cm and 2.02 cm
CCN1C(=O)C(O)(C(=O)O)Oc2cc(F)ccc21 (stereo not shown),2.11 cm and 2.02 cm and 2.03 cm and 1.98 cm and 2 cm
CN1C(=O)C(O)(C(=O)O)Oc2cc(F)ccc21 (stereo not shown),2.1 cm and 2.05 cm and 2.11 cm and 2.06 cm
COc1ccc2c(c1)OC(O)(C(=O)O)C(=O)N2Cc1ccccc1 (stereo not shown),1.9 cm and 1.93 cm and 1.85 cm and 1.88 cm

# Block 4
# SMILES: CCN1/C(=C/C=C2\CCCC(/C=C/C3=[N+](CC)c4ccccc4C3(C)C)=C2NCCCCCCCCN2CCC(Nc3nc4ccccc4n3Cc3ccc(F)cc3)CC2)C(C)(C)c2ccccc21
# Cell line: U-87 MG
# Tested at: concentration not given
# Relative to: DMSO
test,log2 fold change
refers to: FAT1 mRNA,1.23
refers to: PI3 mRNA,4.65
refers to: SRXN1 mRNA,1.45
refers to: GLI2 mRNA,-1.17
refers to: WNT5A mRNA,-0.881
refers to: PLCL2 mRNA,-0.93
refers to: PYROXD2 mRNA,-1.02
refers to: NCAPG mRNA,-1.8
refers to: DNAJC9 mRNA,-0.995
refers to: EHMT2 mRNA,-0.916
refers to: NFE2L2 mRNA,0.913
